Results from different studies.
Compare with care: the assays were run in different laboratories. “And” joins repeats or separate records; there may be more than shown. ± marks the error that the study gave. Values after ≈ are worked out from the molar mass of the structure shown.

SMILES	assay	system	conditions	how to read	endpoint	result
O=C(Nc1nc2cccc(-c3ccc(CN4CCS(=O)(=O)CC4)cc3)n2n1)C1CC1	item: rheumatoid arthritis	rheumatoid arthritis patients	oral, 200 mg once daily, 4 weeks, any relatedness		treatment-emergent adverse events	0%
N#Cc1ccc2c(c1)[C@H]1CCCN(C(=O)c3ccc4[nH]cnc4c3)[C@H]1C2		human	160 mg, day 7	reference: baseline	ACTH level change	2.5 pmol/L
CN1CCC[C@H](CN2c3ccccc3Sc3ccccc32)C1.Cl		fasted female ICR mouse, brain	oral, 16 mg/kg		Tmax	1 h
C[C@@H](O)[C@H](NC(=O)c1ccc(-c2ccc(Br)cc2)cc1)C(=O)NO		aqueous buffer	pH 7.4		thermodynamic solubility	< 10.7 µM
Cn1nccc1-c1nc(N2CCC(c3ccccn3)C2)c2ccccc2n1 (centres unmarked)		Japanese Pharmacopoeia disintegration test solution 2	pH 6.8		kinetic solubility	3 µg/mL (≈ 8.42 µM)
COc1ccc([C@@H](O)c2cc(-c3ncnc4cc(N5CCOCC5)ccc34)c(F)cc2Cl)nn1		locally advanced rectal cancer	oral, 100 mg, together with: capecitabine and radiotherapy		incidence of proctitis TEAE	33%
C[Si](C)(C)O[Si](C)(C)C			0.7 to 42 µg/L, 12.4 °C		log KOA	2.94
CCc1cc(C(=O)NC)c2nccc(N3CCc4c(cc(Cn5ccnc5)cc4-c4cn(C)nc4C(F)(F)F)C3=O)c2c1		Sprague Dawley rats	oral, 50 mg/kg once daily, 7 days	reference: vehicle	serum WBC change	0.23%
O=C1NCCc2nc(OCc3cccc(F)c3)ccc21	item: Piloerection	Sprague-Dawley rat male	oral, 100 mg/kg, 4 h	direction not given	Irwin test score	0
CCN1/C(=C/C(C)=O)Sc2ccc(F)cc21		cynomolgus monkey	oral, 100 mg/kg, 24 h post-dose	reference: pre-dose	QTc interval change	98.2 ± 2.7%
Cn1cc(Nc2nccc(-c3ccc4c(c3)CN(C3COC3)CC[C@H]4NC(=O)c3cn(C(C)(C)C)nn3)n2)cn1		human, whole blood	150 mg twice daily, day 14	reference: pre-dose baseline	B cell count change	20.2%
Cc1ccc(N(C)C(=O)/C=C/c2ccco2)cc1	hot plate test	mice	oral, 30 mg/kg single, 0 min		licking latency	14.7 ± 0.4 s
C[C@@H](NC(=O)N1C(=O)[C@H](Cc2ccnc(N)c2)[C@H]1C(=O)O)C1CCCCC1	UPLC-MS/MS	healthy adult Chinese volunteers, plasma	continuous intravenous infusion, 2.25 mg/kg/h, day 6 of 5-day infusion, mean		Vd	0.521 L/kg
Cc1cccc(CNC(=O)c2cn(CCNC(=O)c3ccccc3Sc3c([N+](=O)[O-])ncn3C)c3cc4c(cc3c2=O)OC(F)(F)O4)n1		Sprague-Dawley rat, male, plasma	intravenous, 5 mg/kg of parent compound		AUC(0-inf)	329 ± 8.72 ng·h/mL
CCCC1CCC(c2ccc(OCC)c(F)c2F)CC1 (centres unmarked)		rat, fetus	10 ng/mL in perfusate, low dose, mixture of 21 LCMs		median fetal accumulation	0.165 ng/g
CCCCC1=NC2(CCCC2)C(=O)N1Cc1ccc(-c2ccccc2S(=O)(=O)Nc2noc(C)c2C)c(COCC)c1		healthy adult volunteers, plasma	oral, 200 mg, single dose, fasted, crushed tablet		AUC(0-inf)	45000 ng·h/mL
CCc1c(-c2ccccc2)c(-c2ccccc2)nn1-c1ccccc1-c1cccc(OCC(=O)O)c1		Sprague-Dawley rat, small intestine homogenate	oral, 10 mg/kg, 1 h		concentration	5020 ng/mL and 4690 ng/mL
CN1C[C@H](COc2nccc3c(NCc4ccco4)cc(Cl)nc23)OC1=O		rat Crl:CD(SD) male	oral, 100 mg/kg, single dose		general condition	negative
COc1cc2nccc(Oc3ccc(NC(=O)c4cc5c(n(-c6ccccc6)c4=O)CCCC5=O)nc3)c2cc1OC		relapsed or refractory AML	oral, 6 mg once daily		grade ≥3 Hypophosphatemia patients	33.3%
O=C(N[C@H](Cc1c[nH]c2ccccc12)C(=O)Nc1ccncc1)c1ccc(-c2ccc(F)c(Cl)c2)cc1F		Swiss Webster mouse, female, liver	oral, 50 mg/kg, 2 h, 20% HPβCD vehicle		concentration	20.8 µM

For quick reference, copied from above:
SMILES	assay	system	conditions	how to read	endpoint	result
C[C@@H](O)[C@H](NC(=O)c1ccc(-c2ccc(Br)cc2)cc1)C(=O)NO		aqueous buffer	pH 7.4		thermodynamic solubility	< 10.7 µM
O=C(N[C@H](Cc1c[nH]c2ccccc12)C(=O)Nc1ccncc1)c1ccc(-c2ccc(F)c(Cl)c2)cc1F		Swiss Webster mouse, female, liver	oral, 50 mg/kg, 2 h, 20% HPβCD vehicle		concentration	20.8 µM
Cn1cc(Nc2nccc(-c3ccc4c(c3)CN(C3COC3)CC[C@H]4NC(=O)c3cn(C(C)(C)C)nn3)n2)cn1		human, whole blood	150 mg twice daily, day 14	reference: pre-dose baseline	B cell count change	20.2%
